Experimental data collected from several papers.
Lines come from different studies, so protocols differ.
Cell line: SN12C

| SMILES | effect on | technique | concentration | time | relative to | quantity | value |
| --- | --- | --- | --- | --- | --- | --- | --- |
| CC(Cc1ccc(Cl)cc1)=C(c1ccc(Cl)cc1)c1ccc(OCCN(C)C)cc1 | cell growth or viability |  |  |  |  | GI50 | 4.18 µM |
| CC/C=C\C/C=C\C/C=C\C/C=C\C/C=C\C/C=C\CCC(=O)Nc1ccn(C2OC(CO)C(O)C2(F)F)c(=O)n1 (stereo not drawn) | cell growth or viability | SRB |  |  |  | GI50 | 0.197 µM |
| COc1ccc(C2=Nn3c(NN=C4C(=O)N(C)c5ccc(Br)cc54)nnc3SC2)cc1 | cell growth or viability | SRB | 10 µM |  |  | inhibition | 12% |
| COc1cc(CNC(=O)C[C@H](C)CCC=C(C)C)ccc1OCc1cn(-c2ccccc2F)nn1 |  | SRB | 10 µM | 48 h |  | growth percent | 76.1% |
| CCC(=C(c1ccc(Cl)cc1)c1ccc(OCCCN(C)C)cc1)c1ccc(OC)cc1 | cell growth or viability |  |  |  |  | GI50 | 5.05 µM |
| COc1cc(CNC(=O)C[C@H](C)CCC=C(C)C)ccc1OCc1cn(-c2ccccc2)nn1 |  | SRB | 10 µM | 48 h |  | growth percent | 98.1% |
| CC(=O)OC[C@H]1O[C@@H](Sc2sc(C(=O)c3ccc(Br)cc3)c(N)c2-c2nc3ccccc3s2)[C@H](OC(C)=O)[C@@H](OC(C)=O)[C@H]1OC(C)=O |  | SRB | 10 µM | 48 h | untreated | growth | 95.1% |
| COc1ccc2c(c1)/C(=N\Nc1nnc3n1N=C(c1ccccc1)CS3)C(=O)N2 | cell growth or viability | SRB | 10 µM |  |  | inhibition | 21% |
| COc1cc(CNC(=O)C[C@H](C)CCC=C(C)C)ccc1OCc1cn(-c2ccc(C#N)cc2)nn1 |  | SRB | 10 µM | 48 h |  | growth percent | 77.8% |

For quick reference, copied from above:
| SMILES | effect on | technique | concentration | time | relative to | quantity | value |
| --- | --- | --- | --- | --- | --- | --- | --- |
| CCC(=C(c1ccc(Cl)cc1)c1ccc(OCCCN(C)C)cc1)c1ccc(OC)cc1 | cell growth or viability |  |  |  |  | GI50 | 5.05 µM |
